Assay results from different studies.
Parts stem from different laboratories: compare values within a part only. Several values in a cell are separate wells, animals, samples, runs or records.
Chain of UniProt P00519 (whole entry, unmodified, looked up): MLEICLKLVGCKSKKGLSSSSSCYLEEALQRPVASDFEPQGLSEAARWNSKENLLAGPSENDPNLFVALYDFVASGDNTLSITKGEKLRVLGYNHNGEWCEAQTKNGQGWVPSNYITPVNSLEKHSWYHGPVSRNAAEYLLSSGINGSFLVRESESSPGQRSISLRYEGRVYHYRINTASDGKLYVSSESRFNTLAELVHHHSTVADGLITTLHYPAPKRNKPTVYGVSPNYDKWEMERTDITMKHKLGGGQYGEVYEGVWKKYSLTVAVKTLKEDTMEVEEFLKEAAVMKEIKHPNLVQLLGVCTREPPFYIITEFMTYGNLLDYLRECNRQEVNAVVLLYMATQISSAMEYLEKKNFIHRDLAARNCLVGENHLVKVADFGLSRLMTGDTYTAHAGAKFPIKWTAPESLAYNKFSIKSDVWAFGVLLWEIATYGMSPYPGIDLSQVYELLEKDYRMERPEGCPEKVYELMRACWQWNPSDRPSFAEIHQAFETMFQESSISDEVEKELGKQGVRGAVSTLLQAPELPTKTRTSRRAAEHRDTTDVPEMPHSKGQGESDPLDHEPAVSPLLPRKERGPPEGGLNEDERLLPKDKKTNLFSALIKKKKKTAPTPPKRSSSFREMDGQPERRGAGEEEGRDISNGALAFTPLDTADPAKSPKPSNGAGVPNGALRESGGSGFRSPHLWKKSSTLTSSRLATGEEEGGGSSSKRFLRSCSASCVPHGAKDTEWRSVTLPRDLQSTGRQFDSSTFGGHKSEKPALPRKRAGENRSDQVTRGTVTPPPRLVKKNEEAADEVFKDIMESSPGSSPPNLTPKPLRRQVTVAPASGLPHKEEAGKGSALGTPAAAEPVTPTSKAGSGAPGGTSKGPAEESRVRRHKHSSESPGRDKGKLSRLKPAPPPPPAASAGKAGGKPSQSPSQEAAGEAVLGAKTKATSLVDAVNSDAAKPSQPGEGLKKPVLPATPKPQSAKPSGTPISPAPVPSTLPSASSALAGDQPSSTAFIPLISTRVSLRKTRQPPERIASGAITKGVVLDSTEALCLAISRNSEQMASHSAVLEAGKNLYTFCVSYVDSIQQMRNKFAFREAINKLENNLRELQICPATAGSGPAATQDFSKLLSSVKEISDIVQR

Block 1 — species: human; medium: microsomes or S9; concentration: 2 µM; time: 0.5 h
| SMILES | remaining compound [%] |
| --- | --- |
| c1ccc(CNc2nc3ccccc3c3nncn23)cc1 | 67.9 |
| O=c1[nH]ccc2c(Cc3nnc4ccc(-c5cccc6c5oc5ccccc56)nn34)cccc12 | 43.6 |
| Cc1cnc(CC2CCCN(C(=O)NC(C)(C)C)C2)n1CC1CC1 (stereo not shown) | 52.3 |

Block 2 — cell line: HaCaT; concentration: 100 µM; time: 18 h
| Structure (SMILES) | viability |
| --- | --- |
| [H]/N=C(/N)N/C(=N/[H])NCCc1ccccc1 | 122% |
| O=C[C@H](O)[C@@H](O)[C@H](O)[C@H](O)CO | 93.6% |
| CC(C)NCC(O)COc1cccc2[nH]c3ccccc3c12 (stereo not shown) | 34.6% |

Mixed results
| SMILES | tested on | test | test system | conditions | how to read | endpoint | value |
| --- | --- | --- | --- | --- | --- | --- | --- |
| COc1ccccc1N1CCN(CC(O)COc2cccc3ccccc23)CC1 (stereo not shown) | mouse MPNST tumor cells | high-content nuclear imaging, refers to: cell number |  | 10 µM, 12 h, mean of 2 replicates | reference: plate mean, higher = more cells | nuclei count | 0.956 z-score and 2.7 z-score |
| Nc1cc(N2CCCCC2)nc(N)[n+]1[O-] | Plasmodium berghei | inhibitor | Huh-7, liver stage | 10 µM, 24 h | reference: untreated control | infection rate | 102% |
| CC(C)n1cnc(-c2ccc(F)cc2)c1-c1ncc(C(=O)Nc2ccc(N3CCN(C)CC3)cc2)[nH]1 |  | phase 2a trial | idiopathic pulmonary fibrosis patients | 60 mg once daily, grade 5 |  | patients with increased interferon-gamma | 0% |
| Cn1cncc1[C@](O)(COc1ccc(C#N)cc1-c1ccc(OC(F)(F)F)cc1)c1ccc(C#N)cc1 | Tyrosine-protein kinase ABL1, phosphorylated (ABL1, Homo sapiens, UniProt P00519, F317I) | binding |  | 1 µM |  | remaining binding | 100% |

A few entries again (block 1):
| SMILES | remaining compound [%] |
| --- | --- |
| c1ccc(CNc2nc3ccccc3c3nncn23)cc1 | 67.9 |
